Results pooled from the literature.
Numbered parts are unrelated; each lists some results of a single study.

Set 1 — method: RNA Bind-n-Seq; form: RNA; medium: in vitro; concentration: 365 nM; reference: no-protein control; direction: higher = stronger binding
Target: RNA binding protein fox-1 homolog 2, RRM domain, GST-SBP tag (RBFOX2, Homo sapiens, UniProt O43251-10, residues 100-194)
Notes: natural RNA segment, single round, ends assumed
Constant ends, left off below: GGGAGUUCUACAGUCCGACGAUC … UGGAAUUCUCGGGUGCCAA
Construct (chain): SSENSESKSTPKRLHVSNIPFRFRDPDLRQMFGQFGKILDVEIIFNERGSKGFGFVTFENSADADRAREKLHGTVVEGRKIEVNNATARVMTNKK
Strand | RBNS enrichment (R)
GCUCCCAUCUCAUUUCCAGAAAGGCUCAUACCUGGCUUGCAGGGAAGCAUCUGUCUUGUCAUUCCAGGUGCCAGAAUCCUCUCAGAGUCAUUGAAGGGUGUUCACCCAUC | 0.993
AUUUUAUUUGUUUUGUUUAAAGCUACAUGUGCUUUUUUCUGUAAAUAAUAAAUUUUUGUAGAUAGUCUUGAUGUGUUAUCUUUGAUUUCUCUGUGUAAAACCAGCUGGCU | 0.729
UUUCUAAGAAUAAGAGCUGGCAAAUGGGAAACUUGGGGUGGAGAGAGCAUACUUAUUGGGCUGUGAAGGCAUACGGAUGUACAUGUUUUAGAGCUUAUCUCAGAUUUAAA | 1.45
GUGAUGAUGAUGUGAAUUGUUUCCAGUGAGGGGAUUGAGUCAAAACUUGGAUCUCAGGUACCUCAAUUUUUCCCCCAAUUUCUGGCUACUACUAAAAGCCAGAAAGAACA | 0.349
AACAAAAACAAGAAACAAAUGUGCCCACCCCACUUUCCGCUUAACUGAAAAGCUUAAAAUAAAUUUCUGAAUUAUGUAUCCUGAAGCUUUGAAAUUUCUUUAUUAAUCGA | 1.08
UGGCUUGCUUUCCAAGCCCAAUGAAGGGAAAGUCAGCUUACAGAGCCAAUGAUGGAGCCACAUGAAUGGCCCUGGAGCUGUGUGCCUUGUUCCUGUGGCCAGGAGUUUGG | 0.772
AUUAAAAAAAAAAAGAAAAGGAAAAAAGUAAAUGAAGCCCAACUACCUAACCCUUUCUUAUUUGUAUUUGUUUUAGUAUUGUGAAGUUGUGUUAAAUAGUACUAGCUAGA | 0.554
AUCAGACUUCACACUGCAAGAGCCUUGGUGUCCACCUGGCCCCAUGUCUCUCAGAAUUCUUCAGGUGGAAAAACAUCUGAAAGCCACGUUCCUUACUGCAGAAUAGCAUA | 0.249

Set 2 — method: RNA Bind-n-Seq; form: RNA; medium: in vitro; concentration: 1 µM; notes: whole 134-nt RNA, ends assumed; added: 150 mM KCl; reference: input library; direction: higher = stronger binding
Target: Ras GTPase-activating protein-binding protein 1, C-terminal RGG region (G3BP1, Homo sapiens, UniProt Q13283)
Chain of UniProt Q13283 (whole entry, looked up): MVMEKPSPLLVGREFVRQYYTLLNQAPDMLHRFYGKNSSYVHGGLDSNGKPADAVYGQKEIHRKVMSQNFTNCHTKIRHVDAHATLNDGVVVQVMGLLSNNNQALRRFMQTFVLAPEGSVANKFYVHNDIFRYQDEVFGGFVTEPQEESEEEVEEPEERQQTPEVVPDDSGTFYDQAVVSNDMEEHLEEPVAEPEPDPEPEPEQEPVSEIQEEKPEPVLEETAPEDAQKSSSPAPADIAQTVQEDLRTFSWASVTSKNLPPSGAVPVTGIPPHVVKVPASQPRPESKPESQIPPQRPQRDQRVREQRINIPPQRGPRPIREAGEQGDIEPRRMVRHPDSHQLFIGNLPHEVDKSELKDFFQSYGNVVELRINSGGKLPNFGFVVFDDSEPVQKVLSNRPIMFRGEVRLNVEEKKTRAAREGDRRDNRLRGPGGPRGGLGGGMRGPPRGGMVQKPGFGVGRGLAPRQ
Constant ends, left off below: GGGAGUUCUACAGUCCGACGAUC … UGGAAUUCUCGGGUGUCAAGG
Strand | log2 enrichment
ACCAUGCAGGUGGGCAUCUUUGGGAAGUGGGGCAAGGGGGGGACAGGGAGGGGGGUAACACUUUGGGAACAGGUGGUCCCAGGUCGUUUC | 2.4
CAAGUCCUGUGCUACACAUCGUAUGUACCGAAUCGGUUUUUUUGGAGGAAAAAGGAAAGUAUUAUGUUACGCCGUUCGGAUCUGCACUUC | -1.63
UGGCCCUGGUGGCAUGCGGGGAGGAAGAGGUGGCCUCAUGGAUCGUGGUGGUCCCGGUGGAAUGUUCAGAGGUGGCCGUGGUGGACACAG | 3.61
CAAGUCCUGUGCUACACAUCGUAUGUACCGAAUCGGGGUUUGGGGUUUGGGUUUGGAAAGUAUUAUGUUACGCCGUUCGGAUCUGCACUU | -0.977
UUCAGUUAUUCAAGCGGAGAAAUGUUGCUACAGCAGAAGAAGAAACAGAAGAAGAAGUUAUGUCAGAUGGAGGCUUUCAUGAGGCUCAGA | -2.56
AGUUCUAUCUCUGGGGUGACUGCCGCAUAUAACCGAGAACAGCUGUGGCUGGCCAAUGAAGGCCUGAUCACCAGGCUGCAGGCUCGCUGC | -0.94
UAACUUUAGAGGAGGAUCUGAUGGAUAUGGCAGUGGUCGUGGAUUUGGGGAUGGCUAUAAUGGGUAUGGAGGAGGACCUGGAGGUGGCAA | -0.533
UGGCCCUGGUGGCAUGCGGGGAGGAAGUGGUGGCCUCAUGGAUCGUGGUGGUCCCGGUGGAAUGUUCAGAGGUGGCCGUGGUGGAGACAG | 1.65
UCCUGUGCUACACAUCGUAUGUACCGAAUCGGAAAAAAAGGAAAAAAAGGGAAAAAAAGGAAAGUAUUAUGUUACGCCGUUCGGAUCUGC | -0.912

Set 3 — method: protein binding microarray; form: double-stranded DNA, one strand shown; medium: in vitro; concentration: not given; reference: not given; direction: higher = stronger binding
Target: Histone acetyltransferase KAT6A, winged helix 2, GST fusion (KAT6A, Homo sapiens, UniProt Q92794, residues 85-181)
Notes: 8-mer, flanks averaged, mean of 2 arrays, mostly near background
Residues (chain): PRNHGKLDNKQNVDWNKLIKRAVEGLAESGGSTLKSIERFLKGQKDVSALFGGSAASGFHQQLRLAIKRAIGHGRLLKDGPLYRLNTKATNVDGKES
Strand | E-score
AGACTGCA | -0.214
ACCCGTTG | 0.000415
AAATGAAT | 0.0554
GTTAAAAA | 0.00867
CATTAAAG | 0.05
CCACCCGA | 0.224
AGAACAAC | -0.0639
CTCCTAAC | -0.0708
CGTGGTGA | -0.156
CCTTTAAG | -0.0514
GCTCCTTA | -0.0672
AACGTAAA | -0.153
TCGCAGAA | 0.128
GAAATTCC | -0.0119
CTTGTCGA | 0.0126
ACGAATAG | -0.11
GATTGCAC | 0.0805
AAAATTAA | 0.148
CGACCAAA | 0.199
CATGGAGG | -0.0935
CAAGAATA | 0.101
AGAACACT | 0.00499
TATATTCA | -0.0173

Set 4 — method: universal PBM; form: double-stranded DNA, one strand shown; medium: in vitro; concentration: 600 nM; direction: higher = stronger binding
Target: Sal-like protein 4, full length isoform A (SALL4, Homo sapiens, UniProt Q9UJQ4, residues 1-1053)
Chain of UniProt Q9UJQ4 (whole entry, looked up): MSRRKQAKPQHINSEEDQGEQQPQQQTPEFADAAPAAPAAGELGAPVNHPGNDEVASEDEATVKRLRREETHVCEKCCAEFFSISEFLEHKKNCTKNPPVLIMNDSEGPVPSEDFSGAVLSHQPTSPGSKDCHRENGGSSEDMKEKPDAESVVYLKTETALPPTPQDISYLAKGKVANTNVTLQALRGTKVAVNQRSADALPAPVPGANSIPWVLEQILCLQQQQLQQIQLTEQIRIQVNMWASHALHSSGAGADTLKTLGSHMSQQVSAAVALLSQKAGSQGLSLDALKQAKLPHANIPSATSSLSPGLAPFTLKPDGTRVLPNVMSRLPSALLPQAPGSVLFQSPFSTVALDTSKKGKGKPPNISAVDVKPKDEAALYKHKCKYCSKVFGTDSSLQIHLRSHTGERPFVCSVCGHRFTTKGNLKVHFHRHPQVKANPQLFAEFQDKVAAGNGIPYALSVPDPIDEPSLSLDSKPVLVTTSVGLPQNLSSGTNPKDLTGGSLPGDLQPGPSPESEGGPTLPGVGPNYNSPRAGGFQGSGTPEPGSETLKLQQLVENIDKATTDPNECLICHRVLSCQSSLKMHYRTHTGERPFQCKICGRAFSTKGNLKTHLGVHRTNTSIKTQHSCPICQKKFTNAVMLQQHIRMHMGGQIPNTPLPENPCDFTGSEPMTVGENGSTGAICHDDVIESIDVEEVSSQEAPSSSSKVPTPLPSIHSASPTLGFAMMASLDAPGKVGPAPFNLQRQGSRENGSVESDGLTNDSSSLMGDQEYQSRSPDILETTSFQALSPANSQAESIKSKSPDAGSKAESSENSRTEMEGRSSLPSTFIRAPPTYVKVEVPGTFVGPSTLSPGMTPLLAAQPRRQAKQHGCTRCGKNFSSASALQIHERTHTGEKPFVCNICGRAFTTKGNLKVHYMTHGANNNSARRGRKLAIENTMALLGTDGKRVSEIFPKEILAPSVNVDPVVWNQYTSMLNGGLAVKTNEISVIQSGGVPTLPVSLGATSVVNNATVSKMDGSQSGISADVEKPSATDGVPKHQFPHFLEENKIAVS
Notes: 8-mer, flanks averaged, mean of replicates
Strand | E-score
ACCTCGGC | -0.291
ATGCTGGG | -0.315
AAATCTGG | 0.0476
AGATCGAA | 0.143
ACGATAAG | 0.123
AGGTAGAA | 0.162
AAATTGTT | 0.327
CGTAAGCC | -0.163
CACTTGCA | 0.0498
ATCAGACA | 0.0833
ACGGACCC | -0.281
CATCCAGG | -0.232
TGGGTTAA | 0.00332
CTTTCTGC | -0.046
GCGGCGCC | -0.322
CACAGCCG | -0.236

Set 5 — method: protein-binding microarray; form: double-stranded DNA, one strand shown; medium: in vitro; concentration: 940 nM top; notes: 60-bp whole probe; added: salmon DNA 0.4 mg/ml; reference: random background probes; direction: higher = stronger binding; constant ends, left off below: GCCTAGCAC … GTCTTGATTCGCTTGACGCTGCTG
Target: Interferon regulatory factor 5, full length, phosphomimetic (IRF5, Homo sapiens, UniProt Q13568-2, residues 1-514, S451D/S453D/S456D/S462D)
Strand | fitted relative affinity
TAAGGTCTCCTTATCCTTTAGTGCTAG | 0.312 z-score
TTAGATTCCAGTTTCGCTTAGTGCTAG | 5.45 z-score
TTATGTCTGGGTATTTTTTCGTGCTAG | 0.605 z-score
TTAGATTTCAGTCTGGATTAGTGCTAG | 0.362 z-score
GACGATTTCAGTCTCGAGAAGTGCTAG | 1.75 z-score
TTAGATATCGGGTATCGAATAGTGCTA | 1.04 z-score
GACGCTCTCCTTCTCCTGACGTGCTAG | 0.349 z-score
TCATTTACAGGTTCTCTTACTGTGCTA | 1.19 z-score
GCCCCACCCGCTCTGGCCCCGTGCTAG | -0.32 z-score
GACGGTTTTGGTTCCGGGACGTGCTAG | 3.76 z-score
TCTTTTCTGTTGTCTGTGTTTGTGCTA | 2.46 z-score
TTAGCTATCGGGACTGGATTAGTGCTA | 0.0186 z-score
GACGATATCAGTCTCGGGACGTGCTAG | 0.988 z-score
GACGATTTCCGACTGGAGACGTGCTAG | 0.249 z-score
TCAAGTTTACCCATCTCCAGGTGCTAG | 0.194 z-score
TTAGGTTTCCTTTTCCTATAGTGCTAG | 2.73 z-score
GACGGTTTGGGACTGGGGACGTGCTAG | -0.499 z-score
CTTGCTTTATGTGTAGGTCTGTGCTAG | -0.0953 z-score
TTAGATTTCAGCATCGATTAGTGCTAG | 0.432 z-score
